# Published values collected from several papers.
SMILES,cell line,observed,technique,concentration,time,baseline,viability
Cc1ccccc1C(c1c[nH]c(=O)[nH]c1=O)c1c[nH]c(=O)[nH]c1=O,Ba/F3,,,1 µg/mL,24 h,,> 90%
COc1cc([C@@H]2OC[C@@H]3[C@H]2CO[C@H]3c2cc(OC)c(O)c(OC)c2)cc(OC)c1O,HepG2,cell growth or viability,CCK-8,50 µM,24 h,,68.6%
C=CCc1ccc(OC(=O)CSc2nnc([C@]3(C)C4CC[C@]5(C)C(C(=O)C=C6C7[C@@H](C)[C@H](C)CC[C@]7(C)CC[C@]65C)[C@@]4(C)CC[C@H]3OC(C)=O)o2)c(OC)c1 (stereo partly shown),HepG2,cell growth or viability,MTT,25 µM,24 h,,87%
CC(C)=CCc1c(O)cc(CO)cc1O,HepG2,cell growth or viability,CCK-8,40 µM,24 h,,78.2%
O=c1[nH]cc(C(c2cccc(C(F)(F)F)c2)c2c[nH]c(=O)[nH]c2=O)c(=O)[nH]1,Ba/F3,,,5 µg/mL,24 h,,> 90%
CC(C)=CCN=C(N)NCCC[C@@H](NC(=O)CCCc1ccc(O)cc1)C(=O)N[C@@H](Cc1ccccc1)C(O)CC(=O)N[C@@H](Cc1ccc(O)cc1)C(=O)O (stereo in doubt),U-87 MG,,alamarBlue,5 µM,20 h,DMSO vehicle,no effect
C[C@@H]1O[C@@H](O[C@H]2[C@H](O[C@H]3CC[C@@]4(C)C(CC[C@]5(C)C4CC=C4C6CC(C)(C)CC[C@]6(C(=O)O[C@@H]6O[C@H](CO)[C@@H](O)[C@H](O)[C@H]6O)CC[C@]45C)[C@]3(C)CO)OC[C@H](O)[C@@H]2O)[C@H](O)[C@H](O[C@@H]2OC[C@@H](O)[C@H](O)[C@H]2O)[C@H]1O (stereo partly shown),HepG2,cell growth or viability,CCK-8,40 µM,24 h,,84.5%
O=c1[nH]cc(C(c2ccccc2Br)c2c[nH]c(=O)[nH]c2=O)c(=O)[nH]1,Ba/F3,,,5 µg/mL,24 h,,> 90%
O=C(Nc1ccc(Oc2ccc(Cl)cc2)cc1)c1cc2ccc(Cl)cc2s1,C2C12 differentiated myotubes,,,10 µM,72 h,,79%
O=c1[nH]cc(C(c2ccc(Cl)cc2)c2c[nH]c(=O)[nH]c2=O)c(=O)[nH]1,Ba/F3,,,5 µg/mL,24 h,,> 90%
CC(C)=C1CC[C@]2(COC(=O)c3ccccc3)[C@@H](OC(=O)c3ccccc3)/C=C(\C)CC[C@@H]3O[C@@]3(C)C[C@@H](OC(=O)c3cccnc3)[C@@H]12,HepG2,cell growth or viability,CCK-8,30 µM,24 h,,91%
O=c1[nH]cc(C(c2cccc(Cl)c2)c2c[nH]c(=O)[nH]c2=O)c(=O)[nH]1,Ba/F3,,,1 µg/mL,24 h,,> 90%
COc1ccc([C@@H]2CC(=O)c3c(O)cc(O[C@@H]4O[C@H](CO[C@@H]5O[C@@H](C)[C@H](O)[C@@H](O)[C@H]5O)[C@@H](O)[C@H](O)[C@H]4O)cc3O2)cc1O,MRC5,cell growth or viability,MTS,50 µg/mL,24 h,,88.7%
CC(C)=CCc1c(O)cc2c(c1O)C(=O)OC2,HepG2,cell growth or viability,CCK-8,50 µM,24 h,,75.3%
CCCC[C@@H]1NC(=O)[C@@H](CC(C)C)NC(=O)[C@H](CCCCN)NC(=O)NNC(=O)[C@H](Cc2c[nH]cn2)NC(=O)[C@@H](Cc2c[nH]c3ccccc23)NC1=O,PC-12,,MTT,up to 100 µM,,,not toxic
OCC1CSC(c2ccc(O)cc2O)S1 (stereo not shown),B16-F10,,MTT,10 µM,24 h,untreated,98.4%

# Repeated from above:
SMILES,cell line,observed,technique,concentration,time,baseline,viability
C=CCc1ccc(OC(=O)CSc2nnc([C@]3(C)C4CC[C@]5(C)C(C(=O)C=C6C7[C@@H](C)[C@H](C)CC[C@]7(C)CC[C@]65C)[C@@]4(C)CC[C@H]3OC(C)=O)o2)c(OC)c1 (stereo partly shown),HepG2,cell growth or viability,MTT,25 µM,24 h,,87%
O=c1[nH]cc(C(c2cccc(C(F)(F)F)c2)c2c[nH]c(=O)[nH]c2=O)c(=O)[nH]1,Ba/F3,,,5 µg/mL,24 h,,> 90%
